Results of several laboratories.
Compare with care: the assays were run in different laboratories. Several values in a cell are separate wells, animals, samples, runs or records. ± gives the spread as reported.
DDX50: ATP-dependent RNA helicase DDX50 (DDX50, Homo sapiens, UniProt Q9BQ39)
Chain of UniProt Q9BQ39 (whole entry, looked up): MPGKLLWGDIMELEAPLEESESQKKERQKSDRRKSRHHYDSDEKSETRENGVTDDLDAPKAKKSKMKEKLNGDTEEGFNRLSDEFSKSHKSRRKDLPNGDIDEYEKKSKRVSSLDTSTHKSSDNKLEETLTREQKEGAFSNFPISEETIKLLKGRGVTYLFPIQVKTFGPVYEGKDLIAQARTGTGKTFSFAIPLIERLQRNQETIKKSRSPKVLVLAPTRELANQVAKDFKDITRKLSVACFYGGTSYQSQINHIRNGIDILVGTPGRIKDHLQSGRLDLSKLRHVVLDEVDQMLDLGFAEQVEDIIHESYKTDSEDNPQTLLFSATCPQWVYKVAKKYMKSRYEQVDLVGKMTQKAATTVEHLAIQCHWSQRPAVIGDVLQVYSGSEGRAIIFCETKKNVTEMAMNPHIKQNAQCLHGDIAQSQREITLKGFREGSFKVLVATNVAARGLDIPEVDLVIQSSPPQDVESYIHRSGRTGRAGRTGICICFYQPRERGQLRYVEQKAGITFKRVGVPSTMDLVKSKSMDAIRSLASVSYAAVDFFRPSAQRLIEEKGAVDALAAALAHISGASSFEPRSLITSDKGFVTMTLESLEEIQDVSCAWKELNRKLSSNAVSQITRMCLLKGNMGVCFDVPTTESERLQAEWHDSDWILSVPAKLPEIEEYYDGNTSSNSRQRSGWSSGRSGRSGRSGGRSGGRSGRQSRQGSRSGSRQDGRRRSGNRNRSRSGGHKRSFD
USP16 ZnF-UBD domain: Ubiquitin carboxyl-terminal hydrolase 16, ZnF-UBD domain (USP16, Homo sapiens, UniProt Q9Y5T5)
Chain of UniProt Q9Y5T5 (whole entry, looked up): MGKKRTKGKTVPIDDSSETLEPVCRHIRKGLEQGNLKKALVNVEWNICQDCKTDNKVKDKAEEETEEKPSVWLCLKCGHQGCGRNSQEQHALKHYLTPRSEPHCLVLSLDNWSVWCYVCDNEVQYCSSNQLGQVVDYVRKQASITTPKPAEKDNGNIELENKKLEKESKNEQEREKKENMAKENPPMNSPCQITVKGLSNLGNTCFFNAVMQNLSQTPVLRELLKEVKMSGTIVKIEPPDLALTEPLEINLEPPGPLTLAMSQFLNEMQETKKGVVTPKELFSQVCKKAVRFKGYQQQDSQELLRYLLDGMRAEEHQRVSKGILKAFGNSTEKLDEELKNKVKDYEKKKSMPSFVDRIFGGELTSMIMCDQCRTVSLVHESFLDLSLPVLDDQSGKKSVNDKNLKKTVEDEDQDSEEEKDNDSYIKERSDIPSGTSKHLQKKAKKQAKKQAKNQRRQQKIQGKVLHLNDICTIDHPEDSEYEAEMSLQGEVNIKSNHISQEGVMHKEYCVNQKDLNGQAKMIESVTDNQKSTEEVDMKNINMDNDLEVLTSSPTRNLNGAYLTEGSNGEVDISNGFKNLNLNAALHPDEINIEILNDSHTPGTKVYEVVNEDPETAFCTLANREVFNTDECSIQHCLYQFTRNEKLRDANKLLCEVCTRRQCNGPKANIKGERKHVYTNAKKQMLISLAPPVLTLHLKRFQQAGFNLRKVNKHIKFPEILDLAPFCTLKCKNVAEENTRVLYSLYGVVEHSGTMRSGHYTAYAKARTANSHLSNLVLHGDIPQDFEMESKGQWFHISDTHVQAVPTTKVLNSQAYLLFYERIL
CYP2D6: Cytochrome P450 2D6 (CYP2D6, Homo sapiens, UniProt P10635)
Chain of UniProt P10635 (whole entry, looked up): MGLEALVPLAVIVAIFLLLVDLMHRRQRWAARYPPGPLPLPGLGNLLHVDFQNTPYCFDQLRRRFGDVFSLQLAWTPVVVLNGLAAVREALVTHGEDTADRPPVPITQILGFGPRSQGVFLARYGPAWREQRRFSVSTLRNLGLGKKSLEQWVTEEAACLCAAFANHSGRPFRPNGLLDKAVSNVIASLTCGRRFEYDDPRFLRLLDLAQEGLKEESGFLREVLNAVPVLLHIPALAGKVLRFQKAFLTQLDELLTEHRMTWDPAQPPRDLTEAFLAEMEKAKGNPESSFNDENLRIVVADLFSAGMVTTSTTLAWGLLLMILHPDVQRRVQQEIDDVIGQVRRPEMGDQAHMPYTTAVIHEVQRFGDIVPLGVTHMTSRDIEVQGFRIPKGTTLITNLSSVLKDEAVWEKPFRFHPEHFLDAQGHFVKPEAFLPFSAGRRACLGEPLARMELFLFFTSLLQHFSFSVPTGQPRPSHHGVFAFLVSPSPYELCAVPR
HDAC8: Histone deacetylase 8 (HDAC8, Homo sapiens, UniProt Q9BY41)
Chain of UniProt Q9BY41 (whole entry, looked up): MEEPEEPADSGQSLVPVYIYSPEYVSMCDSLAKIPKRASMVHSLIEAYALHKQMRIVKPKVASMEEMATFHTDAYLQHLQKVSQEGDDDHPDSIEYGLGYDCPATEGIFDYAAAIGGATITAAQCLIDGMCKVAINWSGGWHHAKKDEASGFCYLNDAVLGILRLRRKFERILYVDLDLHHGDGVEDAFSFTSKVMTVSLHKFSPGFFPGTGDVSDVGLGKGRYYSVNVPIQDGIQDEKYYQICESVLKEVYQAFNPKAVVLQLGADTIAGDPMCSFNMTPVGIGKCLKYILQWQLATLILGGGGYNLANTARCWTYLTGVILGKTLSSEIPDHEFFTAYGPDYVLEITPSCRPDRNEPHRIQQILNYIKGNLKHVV
CYP2J2: Cytochrome P450 2J2 (CYP2J2, Homo sapiens, UniProt P51589)
Chain of UniProt Q16774 (whole entry, unmodified, looked up): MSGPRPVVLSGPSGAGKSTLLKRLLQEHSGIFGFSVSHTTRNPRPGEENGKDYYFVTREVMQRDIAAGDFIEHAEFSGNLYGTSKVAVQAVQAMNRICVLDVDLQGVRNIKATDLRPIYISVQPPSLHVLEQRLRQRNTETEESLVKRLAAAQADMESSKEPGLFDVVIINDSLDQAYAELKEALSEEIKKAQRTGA
Chain of UniProt Q6NT16 (whole entry, unmodified, looked up): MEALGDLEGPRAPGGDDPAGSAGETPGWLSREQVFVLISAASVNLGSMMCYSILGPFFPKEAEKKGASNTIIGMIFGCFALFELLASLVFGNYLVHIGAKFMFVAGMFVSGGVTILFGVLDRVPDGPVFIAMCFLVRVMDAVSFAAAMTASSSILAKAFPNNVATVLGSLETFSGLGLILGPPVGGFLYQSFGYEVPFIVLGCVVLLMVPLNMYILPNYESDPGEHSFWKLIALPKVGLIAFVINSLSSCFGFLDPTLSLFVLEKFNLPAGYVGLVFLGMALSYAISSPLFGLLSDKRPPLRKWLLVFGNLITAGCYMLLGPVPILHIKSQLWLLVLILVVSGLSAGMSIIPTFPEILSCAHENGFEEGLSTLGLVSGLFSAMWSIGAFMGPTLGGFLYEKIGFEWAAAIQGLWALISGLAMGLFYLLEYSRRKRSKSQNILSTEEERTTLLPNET
Chain of UniProt Q9NZC2 (whole entry, looked up): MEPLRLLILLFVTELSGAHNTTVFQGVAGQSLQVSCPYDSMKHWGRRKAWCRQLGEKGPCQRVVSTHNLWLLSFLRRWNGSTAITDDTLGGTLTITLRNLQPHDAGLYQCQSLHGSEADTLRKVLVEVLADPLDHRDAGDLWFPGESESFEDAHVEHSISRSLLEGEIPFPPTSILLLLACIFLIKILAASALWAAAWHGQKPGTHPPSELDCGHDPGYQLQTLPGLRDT
Chain of UniProt P51589 (whole entry, looked up): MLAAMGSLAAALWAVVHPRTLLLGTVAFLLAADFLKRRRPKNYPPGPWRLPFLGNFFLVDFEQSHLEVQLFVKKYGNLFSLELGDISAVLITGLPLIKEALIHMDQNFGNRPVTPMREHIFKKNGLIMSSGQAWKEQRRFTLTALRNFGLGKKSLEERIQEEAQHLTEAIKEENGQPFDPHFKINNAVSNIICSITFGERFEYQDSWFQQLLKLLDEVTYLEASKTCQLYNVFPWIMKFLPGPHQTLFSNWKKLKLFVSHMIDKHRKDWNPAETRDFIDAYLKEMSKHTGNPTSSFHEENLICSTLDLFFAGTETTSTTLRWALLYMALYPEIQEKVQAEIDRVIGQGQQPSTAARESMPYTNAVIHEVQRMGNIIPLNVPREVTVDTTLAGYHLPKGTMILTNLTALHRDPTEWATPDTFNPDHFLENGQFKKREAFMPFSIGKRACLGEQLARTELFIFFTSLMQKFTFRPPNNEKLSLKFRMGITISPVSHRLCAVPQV
Chain of UniProt Q9C098 (whole entry, looked up): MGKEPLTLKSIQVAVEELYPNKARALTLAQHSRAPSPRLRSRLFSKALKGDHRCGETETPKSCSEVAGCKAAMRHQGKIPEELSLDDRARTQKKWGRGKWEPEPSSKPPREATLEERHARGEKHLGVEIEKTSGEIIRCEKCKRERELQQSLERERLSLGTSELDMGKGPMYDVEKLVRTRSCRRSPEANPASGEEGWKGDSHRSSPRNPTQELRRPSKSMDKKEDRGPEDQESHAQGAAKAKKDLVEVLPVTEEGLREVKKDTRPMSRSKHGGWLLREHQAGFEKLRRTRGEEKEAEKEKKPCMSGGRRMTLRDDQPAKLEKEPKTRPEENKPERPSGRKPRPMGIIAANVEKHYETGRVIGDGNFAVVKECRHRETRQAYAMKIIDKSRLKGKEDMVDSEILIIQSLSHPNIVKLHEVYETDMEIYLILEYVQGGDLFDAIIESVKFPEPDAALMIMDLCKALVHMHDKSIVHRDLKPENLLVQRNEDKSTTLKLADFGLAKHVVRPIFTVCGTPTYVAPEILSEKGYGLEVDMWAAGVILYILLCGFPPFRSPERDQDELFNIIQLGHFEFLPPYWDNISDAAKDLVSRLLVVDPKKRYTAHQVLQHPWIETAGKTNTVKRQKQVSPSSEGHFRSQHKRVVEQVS
Chain of UniProt O06974 (whole entry, looked up): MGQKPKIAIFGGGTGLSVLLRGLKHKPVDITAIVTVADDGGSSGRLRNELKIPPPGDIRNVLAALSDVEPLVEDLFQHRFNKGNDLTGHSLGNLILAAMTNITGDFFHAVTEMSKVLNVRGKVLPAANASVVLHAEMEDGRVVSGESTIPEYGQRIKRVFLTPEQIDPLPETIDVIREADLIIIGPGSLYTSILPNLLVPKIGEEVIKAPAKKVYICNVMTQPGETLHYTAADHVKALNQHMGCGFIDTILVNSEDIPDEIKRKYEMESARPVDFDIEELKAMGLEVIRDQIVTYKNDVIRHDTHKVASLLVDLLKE

SMILES | tested on | assay | system | setting | scale | endpoint | value
NCCCNC(=O)[C@H](Cc1ccccc1)NC(=O)[C@@H]1CCCN1C(=O)[C@@H](N)C/C=C/C[C@H](N)C(=O)N1CCC[C@H]1C(=O)N[C@@H](Cc1ccccc1)C(=O)NCCCN | HIV-1 frameshift RNA stem-loop | binding, SPR |  |  |  | Kd | no binding
COC(=O)c1ccc(N)cc1Cl | Casein kinase I isoform alpha (CSNK1A1, Homo sapiens, UniProt P48729) | binding, surface plasmon resonance |  | up to 50 µM |  | Kd | no binding
Cc1cc(Nc2cc3ncccc3c(N[C@@H]3C[C@H]4CC[C@@H](C3)N4CCC#N)n2)n[nH]1 | Serine/threonine-protein kinase DCLK3 (DCLK3, Homo sapiens, UniProt Q9C098) | binding, KINOMEscan |  |  |  | Kd | 0.024 µM
Nc1ncnc2c1ncn2[C@@H]1O[C@H](COP(=O)(O)OP(=O)(O)OP(=O)(O)O)[C@@H](O)[C@H]1O | DDX50 | microscale thermophoresis | PBST | 25 °C, compound-binding domain, no glucose |  | Kd | 1.6 ± 0.46 µM
C=C1CC(C(=O)Nc2cc(C(=O)NC)cc(-c3cccs3)c2OC)C1 | Triggering receptor expressed on myeloid cells 2 (Homo sapiens, UniProt Q9NZC2) | binding |  |  |  | Kd | 76.4 µM and 76 µM
O=C(O)CCc1ccc2c(c1)OCO2 | USP16 ZnF-UBD domain |  |  |  |  | Kd | > 1000 µM
O=C(Cn1ccnc1)c1ccc(Cl)cc1Cl | CYP2D6 | binding |  | 20 min, pH 7.4, purified protein, 2% DMSO |  | Kd | 13.6 µM
COc1cc2c(cc1OC)[C@H]1C[C@@H](O)[C@H](CC(C)C)CN1CC2 | MFS-type transporter SLC18B1 (SLC18B1, Homo sapiens, UniProt Q6NT16, F79A) | binder |  | radiolabeled protein variants |  | Kd | 49 µM
O=C(O)Cc1cccc2cccnc12 | USP16 ZnF-UBD domain |  |  |  |  | Kd | > 1000 µM
OC[C@H]1OC(O)[C@H](O)[C@@H](O)[C@@H]1O (stereo partly drawn) | DDX50 | microscale thermophoresis | PBST | 25 °C, ATP-binding domain |  | Kd | 43.6 ± 23.1 µM
Cc1ccc(C(=O)O)cc1S(=O)(=O)Nc1cccc(C(=O)CCC(=O)O)c1 | USP16 ZnF-UBD domain |  |  |  |  | Kd | 114 µM
CC[C@H](C)[C@H](NC(=O)[C@H](CC(C)C)NC(=O)[C@H](Cc1ccc(OP(=O)(O)O)cc1)NC(=O)[C@H](CCC(=O)O)NC(=O)[C@H](CC(=O)O)NC(=O)[C@H](C)NC(=O)[C@H](CC(=O)O)NC(=O)[C@@H](NC(=O)[C@@H](NC(=O)[C@H](CC(=O)O)NC(=O)[C@H](CC(=O)O)NC(=O)[C@H](CCSC)NC(=O)c1ccc2c(c1)C(=O)OC21c2ccc(N(C)C)cc2Oc2cc(N(C)C)ccc21)C(C)C)C(C)C)C(=O)N1CCC[C@H]1C(=O)N[C@@H](CCC(N)=O)C(=O)N[C@@H](CCC(N)=O)C(=O)NCC(=O)N[C@@H](Cc1ccccc1)C(=O)N[C@@H](CC(=O)O)C(=O)O | SH2/SH3 adapter protein NCK1, SH2 domain (NCK1, Homo sapiens, UniProt P16333) | binding |  |  |  | Kd | 1 µM
NC(=O)C[C@H](N)C(=O)O |  | binding, MIDAS equilibrium dialysis LC-MS | A2AR-BRIL thermostabilized | concentration not given | relative to: no-protein control | log2 fold change | -0.106
Nc1ncnc2c1ncn2[C@@H]1O[C@H](CSCC[C@H](N)C(=O)O)[C@@H](O)[C@H]1O | O-methyltransferase (Sorghum bicolor, UniProt A0A1B6PFV1) | ITC |  | 25 °C, apo enzyme |  | Kd | 25.5 ± 7.91 µM
Nc1ncnc2c1ncn2[C@@H]1O[C@H](CO[P@](=O)(O)O[P@](=O)(O)O[P@@](=O)(O)S)[C@@H](O)[C@H]1O | GUK1 (Homo sapiens, UniProt Q16774, R133A) | binding, ITC |  | 25 °C, together with: GMP |  | Kd | > 400 µM
Nc1nc(-c2ccc(Cl)c(S(N)(=O)=O)c2)cs1 | Carbonic anhydrase 6 (CA6, Homo sapiens, UniProt P23280) | binding, thermal shift |  | pH 7.0, 25 °C |  | Kd | 0.25 µM
Cn1cc(-c2ccc(S(=O)(=O)n3ccc(/C=C/C(=O)Nc4ccccc4N)c3)cc2)cn1 | HDAC8 | inhibitor, competition pulldown | SW620 and MV4-11 lysate | 1 h |  | Kd | > 30.2 µM
CC(=O)N[C@H]1[C@@H](OP(=O)(O)OP(=O)(O)OC[C@H]2O[C@@H](n3ccc(=O)[nH]c3=O)[C@H](O)[C@@H]2O)O[C@H](CO)[C@@H](O)[C@@H]1O | mgfK (Bacillus subtilis, UniProt O06974) | binding, fluorescence titration |  |  |  | Kd | 280 ± 40 µM

SMILES | tested on | assay | system | setting | scale | endpoint | value
O=C(O)CCc1nc2ccccc2c2nc(Cc3ccccc3)nn12 | USP16 ZnF-UBD domain |  |  |  |  | Kd | 285 µM
Nc1nc2c(ncn2[C@@H]2O[C@H](COP(=O)(O)O)[C@@H](O)[C@H]2O)c(=O)[nH]1 | GUK1 (Homo sapiens, UniProt Q16774, S37A) | binding, ITC |  | 25 °C, together with: GMP |  | Kd | > 500 µM
COc1cccc2c1C(=O)c1c(O)c3c(c(O)c1C2=O)C[C@@](O)(C(C)=O)C[C@@H]3O[C@H]1C[C@H](N)[C@H](O)[C@H](C)O1 | CYP2J2 |  |  | 2 min, pH 7.4 |  | Kd | 9.56 ± 1.01 µM
CC(C)(COP(=O)(O)OP(=O)(O)OC[C@H]1O[C@@H](n2cnc3c(N)ncnc32)[C@H](O)[C@@H]1OP(=O)(O)O)[C@@H](O)C(=O)NCCC(=O)NCCS | N-alpha-acetyltransferase 35, NatC auxiliary subunit (NAA35, Homo sapiens, UniProt Q5VZE5) | competitor, competition MS pulldown | SW-620 cell lysate | together with: photo-immobilized beads |  | Kd | 1.73 µM
[N-]=[N+]=NCC1OC(OC2C(N)CC(N)C(OC3OC(CN)C(O)C(O)C3O)C2O)C(O)C(N)C1O (stereo not drawn) | DM1 CUG repeat RNA (12 copies) | binding, fluorescence |  | 1 h, room temperature |  | Kd | 0.92 ± 0.067 µM
NCCCNCCCCNCCCN | MFS-type transporter SLC18B1 (SLC18B1, Homo sapiens, UniProt Q6NT16) | binder |  |  |  | Kd | 19.1 µM
Nc1nc(CC(=O)O)cs1 | USP16 ZnF-UBD domain |  |  |  |  | Kd | > 1000 µM
O=C(O)[C@@H](O)[C@@H](O)[C@H](O)[C@@H](O)C(=O)O |  | binding, MIDAS equilibrium dialysis LC-MS | A2AR-BRIL thermostabilized | concentration not given | relative to: no-protein control | log2 fold change | -0.124
O=O | Indoleamine 2,3-dioxygenase 1 (IDO1, Homo sapiens, UniProt P14902) |  |  |  |  | Kd | 2.6 ± 1.2 µM
CCCCOc1ccc(CC(=O)NO)cc1 | HDAC8 | inhibitor, competition pulldown | SW620 and MV4-11 lysate | 1 h |  | Kd | > 30.2 µM
NS(=O)(=O)c1ccc(NCC(=O)O)cc1 | USP16 ZnF-UBD domain |  |  |  |  | Kd | 428 µM
CC(C)(C)c1ccc(S(=O)(=O)Nc2ccc(-n3ccnc3)cc2)cc1 | CYP2D6 | binding |  | 20 min, pH 7.4, purified protein, 2% DMSO |  | Kd | 0.549 µM
O=C(O)CCC(=O)N1CCc2ccccc21 | USP16 ZnF-UBD domain |  |  |  |  | Kd | > 1000 µM
Nc1ncnc2c1ncn2[C@@H]1O[C@H](COP(=O)(O)OP(=O)(O)O)[C@@H](O)[C@H]1O | Creatine kinase U-type, mitochondrial (CKMT1A, Homo sapiens, UniProt P12532, E265Q) | microscale thermophoresis |  | pH 8.5, E227Q mutant, no substrate |  | Kd | 1 ± 0.8 µM
Fc1ccc(NC(=S)NCCCn2ccnc2)c(F)c1 | CYP2D6 | binding |  | 20 min, pH 7.4, purified protein, 2% DMSO |  | Kd | 10.3 µM
O=C(O)CN1Cc2ccccc2C1=O | USP16 ZnF-UBD domain |  |  |  |  | Kd | > 1000 µM
COc1cccc2c1C(=O)c1c(O)c3c(c(O)c1C2=O)C[C@@](O)(/C(C)=N/NC(=O)c1ccccc1)C[C@@H]3O[C@H]1C[C@H](N)[C@H](O)[C@H](C)O1 | CYP2J2 |  |  | 2 min, pH 7.4 |  | Kd | 10.1 ± 1.11 µM
Nc1[nH]ncc1-c1ccccc1 | CYP2D6 | binding |  | 20 min, pH 7.4, purified protein, 2% DMSO |  | Kd | 74.1 µM

For quick reference, copied from above:
SMILES | tested on | assay | system | setting | scale | endpoint | value
COc1cccc2c1C(=O)c1c(O)c3c(c(O)c1C2=O)C[C@@](O)(/C(C)=N/NC(=O)c1ccccc1)C[C@@H]3O[C@H]1C[C@H](N)[C@H](O)[C@H](C)O1 | CYP2J2 |  |  | 2 min, pH 7.4 |  | Kd | 10.1 ± 1.11 µM
Nc1[nH]ncc1-c1ccccc1 | CYP2D6 | binding |  | 20 min, pH 7.4, purified protein, 2% DMSO |  | Kd | 74.1 µM
